Measured values gathered from unrelated publications.
Each line is one published result; not all experiments were run side by side. ≈ marks a conversion by molar mass, not a printed value.
Chain of UniProt Q00526 (whole entry, looked up): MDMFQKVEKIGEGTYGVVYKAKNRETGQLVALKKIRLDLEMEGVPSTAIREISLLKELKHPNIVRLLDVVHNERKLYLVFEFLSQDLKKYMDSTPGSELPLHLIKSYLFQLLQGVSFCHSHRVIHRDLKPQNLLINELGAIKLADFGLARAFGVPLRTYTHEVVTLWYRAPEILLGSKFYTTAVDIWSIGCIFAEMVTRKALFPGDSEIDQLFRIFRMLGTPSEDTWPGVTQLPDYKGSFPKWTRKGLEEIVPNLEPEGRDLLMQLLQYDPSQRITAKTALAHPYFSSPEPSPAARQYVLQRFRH
Chain of UniProt Q2M2I8 (whole entry, looked up): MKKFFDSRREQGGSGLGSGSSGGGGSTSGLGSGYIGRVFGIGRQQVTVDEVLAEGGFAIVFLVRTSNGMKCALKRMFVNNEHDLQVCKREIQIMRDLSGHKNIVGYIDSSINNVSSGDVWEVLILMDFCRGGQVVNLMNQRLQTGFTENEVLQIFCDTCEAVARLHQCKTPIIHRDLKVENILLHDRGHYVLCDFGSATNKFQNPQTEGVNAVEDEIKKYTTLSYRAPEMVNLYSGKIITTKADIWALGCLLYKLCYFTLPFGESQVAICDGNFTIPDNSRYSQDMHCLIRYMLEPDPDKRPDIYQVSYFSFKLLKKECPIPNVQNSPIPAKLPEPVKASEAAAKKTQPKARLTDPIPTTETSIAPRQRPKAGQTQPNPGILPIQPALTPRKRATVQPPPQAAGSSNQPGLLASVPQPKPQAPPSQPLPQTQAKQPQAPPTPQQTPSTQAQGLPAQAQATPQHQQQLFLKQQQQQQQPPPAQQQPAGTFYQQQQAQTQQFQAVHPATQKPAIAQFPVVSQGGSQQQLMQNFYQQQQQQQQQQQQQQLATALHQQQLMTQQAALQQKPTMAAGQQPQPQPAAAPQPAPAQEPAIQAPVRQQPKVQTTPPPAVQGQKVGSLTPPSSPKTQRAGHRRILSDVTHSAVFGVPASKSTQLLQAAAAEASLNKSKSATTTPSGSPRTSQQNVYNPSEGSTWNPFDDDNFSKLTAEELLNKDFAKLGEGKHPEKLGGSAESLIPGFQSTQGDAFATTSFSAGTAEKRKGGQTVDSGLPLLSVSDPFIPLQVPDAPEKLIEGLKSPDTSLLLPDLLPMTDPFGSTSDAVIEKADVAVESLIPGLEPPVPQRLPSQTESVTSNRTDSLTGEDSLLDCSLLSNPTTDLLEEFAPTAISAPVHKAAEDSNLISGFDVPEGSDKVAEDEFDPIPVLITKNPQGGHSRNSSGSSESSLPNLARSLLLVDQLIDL
Chain of UniProt Q9BXA7 (whole entry, looked up): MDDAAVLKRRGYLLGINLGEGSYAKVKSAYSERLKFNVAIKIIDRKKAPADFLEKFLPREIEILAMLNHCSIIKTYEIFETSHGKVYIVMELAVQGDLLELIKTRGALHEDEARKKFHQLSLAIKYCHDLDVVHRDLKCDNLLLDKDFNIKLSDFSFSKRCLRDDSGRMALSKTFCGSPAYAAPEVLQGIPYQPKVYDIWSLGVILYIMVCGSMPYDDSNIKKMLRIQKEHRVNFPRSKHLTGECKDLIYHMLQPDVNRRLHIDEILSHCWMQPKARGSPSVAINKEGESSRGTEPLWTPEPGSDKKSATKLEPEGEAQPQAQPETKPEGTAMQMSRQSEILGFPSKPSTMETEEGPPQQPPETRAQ
Chain of UniProt Q8IVH8 (whole entry, looked up): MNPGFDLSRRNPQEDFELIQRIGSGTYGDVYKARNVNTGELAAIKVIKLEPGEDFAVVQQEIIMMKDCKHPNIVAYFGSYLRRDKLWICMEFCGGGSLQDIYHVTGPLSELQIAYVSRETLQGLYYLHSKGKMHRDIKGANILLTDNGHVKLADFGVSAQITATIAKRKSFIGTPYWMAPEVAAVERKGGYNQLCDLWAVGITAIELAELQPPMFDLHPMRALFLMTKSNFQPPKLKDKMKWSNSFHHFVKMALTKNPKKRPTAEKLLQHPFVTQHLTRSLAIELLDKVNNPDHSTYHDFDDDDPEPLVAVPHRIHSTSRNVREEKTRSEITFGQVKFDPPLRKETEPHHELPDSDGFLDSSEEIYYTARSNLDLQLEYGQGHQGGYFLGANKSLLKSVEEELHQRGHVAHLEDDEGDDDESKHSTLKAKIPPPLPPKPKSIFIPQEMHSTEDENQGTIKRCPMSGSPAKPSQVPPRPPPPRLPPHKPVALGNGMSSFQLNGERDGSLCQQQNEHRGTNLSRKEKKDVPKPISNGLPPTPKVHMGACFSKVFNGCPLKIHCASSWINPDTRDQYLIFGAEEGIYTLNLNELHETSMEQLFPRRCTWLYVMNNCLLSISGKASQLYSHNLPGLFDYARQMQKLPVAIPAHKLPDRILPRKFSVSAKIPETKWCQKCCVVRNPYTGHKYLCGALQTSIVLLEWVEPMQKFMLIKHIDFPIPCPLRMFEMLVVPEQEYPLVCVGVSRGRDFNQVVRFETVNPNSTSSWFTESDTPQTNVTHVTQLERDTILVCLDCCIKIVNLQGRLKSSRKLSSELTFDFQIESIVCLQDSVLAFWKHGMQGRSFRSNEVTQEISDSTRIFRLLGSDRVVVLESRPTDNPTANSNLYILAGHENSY
Chain of UniProt O33336 (whole entry, looked up): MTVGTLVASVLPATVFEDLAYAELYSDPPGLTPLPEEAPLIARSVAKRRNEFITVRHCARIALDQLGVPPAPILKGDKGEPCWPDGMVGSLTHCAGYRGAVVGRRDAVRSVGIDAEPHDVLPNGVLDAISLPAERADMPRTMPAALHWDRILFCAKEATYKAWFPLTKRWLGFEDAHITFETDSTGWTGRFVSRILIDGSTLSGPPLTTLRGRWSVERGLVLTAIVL

The CC50 of COc1ccc(/C=C/C(=O)N[C@H](C(=O)N[C@@H](CC(C)C)C(=O)N[C@H](C=O)C[C@@H]2CCCNC2=O)C(C)C)cc1 is reported as over 100 µM (A549; cell growth or viability, MTT; 24 h).
CC(C)C[C@H]1C(=O)N(C)[C@@H](CC(C)C)C(=O)N[C@H](Cc2ccc(O)cc2)C(=O)N2CCC[C@@H]2C(=O)N[C@H]([C@H](C)O)C(=O)NCC(=O)NCC(=O)N[C@@H](CO)C(=O)N[C@@H](C(C)C)C(=O)N[C@@H](C)C(=O)N[C@@H](C)C(=O)N[C@@H](Cc2ccccc2)C(=O)N1C has a thermodynamic solubility of 590 µM (≈ 711 µg/mL) (aqueous buffer; 18 h, pH 7.4).
The viability of CN[C@@H]1C[C@H]2O[C@@](C)([C@@H]1OC)n1c3ccccc3c3c4c(c5c6ccccc6n2c5c31)C(=O)NC4 is reported as 23% (NCI-H1975; cell growth or viability, MTT; 100 µg).
The IC50 of N.N.[Cl][Pt][Cl] is reported as 0.94 µM (L-82; cell growth or viability, ATP luminescence; 72 h).
The IC50 of NS(=O)(=O)N=c1[nH]c2ccc(Cl)cc2c(=O)n1Cc1cccnc1 is reported as over 100 µM (4'-phosphopantetheinyl transferase PptT (Mycobacterium tuberculosis, UniProt O33336); enzyme activity, inhibitor, FP).
CC[C@@H](C)[C@H]1NC(=O)[C@@H](Cc2ccc(O)cc2)NC(=O)[C@@H](CCCNC(=N)N)NC(=O)[C@@H](Cc2ccc(O)cc2)NC(=O)[C@H]([C@@H](C)CC)NC(=O)[C@H]([C@@H](C)CC)NC(=O)[C@H](C)NC(=O)[C@H](C(C)C)NC(=O)[C@H](C(C)C)NC(=O)CNC(=O)[C@H](C(C)C)NC1=O gave a thermodynamic solubility of 238 µM (≈ 297 µg/mL) (aqueous buffer; 18 h, pH 7.4).
CC(C)C[C@H](NC(=O)[C@@H](NC(=O)/C=C/c1ccc(F)cc1)C(C)C)C(=O)N[C@H](C=O)C[C@@H]1CCCNC1=O gave a CC50 of over 100 µM (A549; cell growth or viability, MTT; 24 h).
With Cc1ncc2n1-c1ccc(Cl)cc1C(c1ccccc1F)=NC2 the compound remaining was 4% (metabolic stability; monkey, hepatocytes; 1 µM, 4 h).
For COc1ncccc1-c1cnn2ccc(N3CCN(C(=O)OC(C)C)CC3)nc12, the remaining binding was 2.1% (AP2-associated protein kinase 1 (AAK1, Homo sapiens, UniProt Q2M2I8); binding, competition with immobilised ligand; 1 µM).
With CC(C)C[C@H](CN)CC(=O)O the LD50 was over 2000 mg/kg (mouse; oral, 2000 mg/kg, single dose).
For Cc1nn(C)cc1-c1nc2c(N3CCN(Cc4ccc(Cl)cc4)CC3)c(Cl)cnc2[nH]1, the remaining binding was 95% (Cyclin-dependent kinase 3 (CDK3, Homo sapiens, UniProt Q00526); binding, competition with immobilised ligand; 1 µM).
For [2H]c1c([2H])c([C@]2([2H])CCCN2C(=O)C(C)(C)Oc2ccc3cn[nH]c3c2)c([2H])c([2H])c1C([2H])([2H])[2H], the remaining binding was 66% (Testis-specific serine/threonine-protein kinase 1 (TSSK1B, Homo sapiens, UniProt Q9BXA7); binding, competition with immobilised ligand; 1 µM).
C#Cc1ccc2c(c1)C(c1ccccn1)=NCc1c(-c3cnco3)ncn1-2.Cl gave a kinetic solubility of 2800 µg/mL (water; 20 min, 37 °C).
CC(C)C[C@@H]1NC(=O)CNC(=O)[C@H]2CCCN2C(=O)[C@@H](CC(C)C)NC(=O)CNC(=O)[C@H](Cc2ccc(O)cc2)NC(=O)[C@@H](Cc2ccc(O)cc2)NC(=O)[C@@H](CCCCN)NC(=O)[C@H]([C@@H](C)O)NC(=O)[C@@H]2CCCN2C(=O)[C@H](CC(C)C)NC1=O gave a solubility of 631 µM (≈ 759 µg/mL) (aqueous buffer; 18 h, pH 7.4).
With COCC1=N[C@@]2(O)[C@H](C(=O)N(C)OC)[C@@H](c3ccccc3)[C@]3(c4ccc(OC)cc4)Oc4cc(OC)cc(OC)c4[C@]23N1 the half-life was 4.5 min (metabolic stability; male CD-1 mouse, liver microsomes; 1 µM, pH 7.4).
Nc1ncc(-c2nc(N3CCOCC3)nc(N3CCOCC3)n2)c(C(F)F)n1 has a remaining binding of 87% (Mitogen-activated protein kinase kinase kinase kinase 3 (MAP4K3, Homo sapiens, UniProt Q8IVH8); binding, competition with immobilised ligand; 10 µM).
CC(C)C[C@@H]1NC(=O)[C@@H](CCCNC(=N)N)NC(=O)[C@@H](Cc2ccc(O)cc2)NC(=O)[C@H]2CCCN2C(=O)[C@H](CC(C)C)NC(=O)[C@H](CC(C)C)NC(=O)[C@@H]2CCCN2C(=O)[C@H]([C@@H](C)O)NC(=O)[C@H]([C@@H](C)O)NC(=O)CNC(=O)CNC1=O has a solubility of 603 µM (≈ 705 µg/mL) (aqueous buffer; 18 h, pH 7.4).
CC[C@H](C)[C@H](NC(=O)/C=C/c1ccccc1)C(=O)N[C@@H](CC(C)C)C(=O)N[C@H](C=O)C[C@@H]1CCCNC1=O gave a CC50 of over 100 µM (A549; cell growth or viability, MTT; 24 h).

A few entries again:
The viability of CN[C@@H]1C[C@H]2O[C@@](C)([C@@H]1OC)n1c3ccccc3c3c4c(c5c6ccccc6n2c5c31)C(=O)NC4 is reported as 23% (NCI-H1975; cell growth or viability, MTT; 100 µg).
With COCC1=N[C@@]2(O)[C@H](C(=O)N(C)OC)[C@@H](c3ccccc3)[C@]3(c4ccc(OC)cc4)Oc4cc(OC)cc(OC)c4[C@]23N1 the half-life was 4.5 min (metabolic stability; male CD-1 mouse, liver microsomes; 1 µM, pH 7.4).
CC[C@@H](C)[C@H]1NC(=O)[C@@H](Cc2ccc(O)cc2)NC(=O)[C@@H](CCCNC(=N)N)NC(=O)[C@@H](Cc2ccc(O)cc2)NC(=O)[C@H]([C@@H](C)CC)NC(=O)[C@H]([C@@H](C)CC)NC(=O)[C@H](C)NC(=O)[C@H](C(C)C)NC(=O)[C@H](C(C)C)NC(=O)CNC(=O)[C@H](C(C)C)NC1=O gave a thermodynamic solubility of 238 µM (≈ 297 µg/mL) (aqueous buffer; 18 h, pH 7.4).
